Published values collected from several papers.
A part holds a random share of what one study measured. Positions count from the first letter of the parent shown.

Study 1 — target: CCND2, cyclin fold, Cln2 fusion (human); method: yeast growth competition, sequencing; medium: yeast; setting: weak parent motif; reference: not given; direction: higher = stronger binding
Starting sequence: E2F1 docking peptide (human); PPVKRRLDLETDH
| Change | normalised enrichment score |
| --- | --- |
| D8C | 0.17 |
| H13K | 0.446 |
| H13S | 0.462 |
| T11W | 0.557 |
| P1G | 0.109 |
| V3I | 0.297 |
| T11R | 0.175 |
| P1F | 0.553 |
| R6L | 0.308 |
| H13P | -0.604 |
| T11V | -0.0386 |
| D8M | 0.29 |
| T11A | 0.327 |
| V3C | 0.468 |
| R5A L7A | -0.119 |
| P2T | 0.227 |
| R6T | 0.113 |
| R5M | 0.117 |
| R6V | 0.21 |
| L7Y | 0.14 |
| P2D | 0.359 |
| P1K | 0.188 |
| T11E | 0.116 |
| V3R | 0.489 |
| L7M | 0.348 |

Study 2 — method: RNA Bind-n-Seq; molecule type: RNA; medium: in vitro; concentration: 365 nM; reference: no-protein control; direction: higher = stronger binding
Target: RNA binding protein fox-1 homolog 2, RRM domain, GST-SBP tag (RBFOX2, Homo sapiens, UniProt O43251-10, residues 100-194)
Setting: natural RNA segment, single round, ends assumed
Construct (chain): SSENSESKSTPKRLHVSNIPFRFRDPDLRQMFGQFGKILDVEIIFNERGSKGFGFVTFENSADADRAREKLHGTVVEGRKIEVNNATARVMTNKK
| Sequence | RBNS enrichment (R) |
| --- | --- |
| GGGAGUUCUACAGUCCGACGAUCCCUAGCAUUCAUGAUUUUUUUUUCAUACAAUGAAUUAAAAUUGCUAAAAUCAUGGACUGGCUUUCUGGUUGGAUUUCAGGUAAGAUGUGUUUAAGGCCAGAGCUUUUCUCUGGAAUUCUCGGGUGCCAA | 0.719 |
| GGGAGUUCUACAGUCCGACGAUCCUUUUCCACAUUCAAUGGAAGCUUCAUGGUUGUUCUGACAGUGAAAGCAGUCCUGGAGAUCCCAUUAUUAAUAAAACAAAAAGGCCUGCAGAGAUUCCUGACCACUGAUCUGGAAUUCUCGGGUGCCAA | 0.294 |
| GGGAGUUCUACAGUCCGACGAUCCAAAAUAGAAUAGCAUCUCCAUGUGCAUUAAAAACUUCGCCAGCACUGCCUUUUGCCAGCAUUCUAAAUUUGGAGUUUUACUGAGAAGGAAACUGUUUUUAUAGUUUUAAUGGAAUUCUCGGGUGCCAA | 0.596 |
| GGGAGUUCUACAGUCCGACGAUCAGUAUUUGUGAAAAGUAAUGAGCCAUAGUACCCAGUCAUGUUAAAUGAAUAUUAAAAGCAUGGAGAGGAAACAUGAGGAACAAUGAAUUUCAACAUAUGGCUUCAGAACAUGGAAUUCUCGGGUGCCAA | 1 |
| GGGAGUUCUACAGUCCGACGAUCUCCUCUGGACCCCCAGGAGGCUGGUGCCAGGGAGACAGGCCCAACCCACCCCCAUUUGCACUGAGAAGAGAAGUUUUGGAGCGUUGCCUCCUAGAAUAAAGAUACAGAGAUGGAAUUCUCGGGUGCCAA | 0.407 |
| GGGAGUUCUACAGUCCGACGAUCCUGAAAUUUUAUUUUUCCACAACAGGGUGAUUGGCAGUGGUUGUUCUCCCUUUUUCUGACAGUGUGGUUCAGCUCCUGUUUCAGAUUCUGUGUCAUUUUUCAAUUUACAAUGGAAUUCUCGGGUGCCAA | 0.828 |
| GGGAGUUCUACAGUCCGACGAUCAGCCCUGUAGGGGGCUGUGCAGAUGUGGGUGUGCCACAGGGAGGGUGGCCCCUAGCCAUGUAUCCAUUGGCUGUUUUGGCUUCAGAUUCAACCAAGAUCUGCCUGACUAAUGGAAUUCUCGGGUGCCAA | 0.376 |
| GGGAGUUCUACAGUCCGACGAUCUGCAGAGAGCCCCAUUAUCUCCUCUGGACCUGGGCCUUCGAACACCUGGGGGGUAUUUUUUGCCCUCCGUUGGGACACCAGUCUUCGGUGUGUGGAAAUGUGGAAGUCCUUGGAAUUCUCGGGUGCCAA | 0.229 |
| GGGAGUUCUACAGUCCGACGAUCUGGCGUCUUUGAAGCCUGGCCUCUUGGCUUCCUUUUGGACUUUGCUUGCUUUCAUUUGAAGUUUGGGUUUGCUUUCUGUGUUCUGUGCGUAUCUUGUUCAGUGUCGUCAAUGGAAUUCUCGGGUGCCAA | 1.06 |
| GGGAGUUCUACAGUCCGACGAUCAUGACUCUUUCUGAAGGAAGAGAAGACAUUUGCCUUUUGUUAAAAGAUGGUAAACCAGAUCUGUCUCCAAGACCUUGGCCUCUCCUUGGAGGACCUUUAGGUCAAACUCCUGGAAUUCUCGGGUGCCAA | 0.201 |
| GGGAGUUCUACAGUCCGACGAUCGAGUAAAGUUUCUUGAUUUCAACUAUAAUGAAUACUUUGCCUGUCUAGUUAGUACUGGCAGGACAUACCCUUAACCAAAACAUGGAAUUUGGCACCUUUUCCUCACUUGUUGGAAUUCUCGGGUGCCAA | 0.226 |
| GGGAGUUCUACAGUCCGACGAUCAUGCAGUUUUGUAGUGCUGGGGUUGGUUCAUGUCCUCUGGCACCCUGGCUUGUUGAAAGGUGGCUUUAGCUGUGUGCUGUGUACCUGCUUACGUGGCCUGCUGUCCUCUGUGGAAUUCUCGGGUGCCAA | 0.655 |

Study 3 — method: RNA Bind-n-Seq; molecule type: RNA; medium: in vitro; concentration: 20 nM; setting: 6-mer, flanks averaged, single round; together with: 150 mM LiCl; reference: input library; direction: higher = stronger binding
Target: TAR DNA-binding protein 43, full length, His tag (TARDBP, Homo sapiens, UniProt Q13148, residues 1-414)
| Sequence | 6-mer enrichment (R) |
| --- | --- |
| CCCUCG | 0.993 |
| CUCAAU | 0.883 |
| GGCUGU | 1.16 |
| GGUUCG | 1.01 |
| CCCCUC | 1.28 |
| UCGGGA | 0.954 |
| GCGCUA | 0.942 |
| CGCGCG | 1.01 |
| GUCAUA | 0.89 |
| UUCAGA | 0.827 |
| AGAGUA | 0.972 |
| CAUAAG | 0.847 |
| AUGUAG | 1.07 |
| AUGCCG | 0.915 |
| GAUAUU | 0.932 |
| AGGCGC | 0.967 |
| CAUUGU | 0.971 |
| GCGGUU | 1.04 |
| UCAACU | 0.819 |
| UCUCCA | 0.912 |
| CCACCC | 1.11 |
| UCACUU | 0.904 |
| UAACGC | 0.825 |

Study 4 — method: protein binding microarray; molecule type: double-stranded DNA, one strand shown; medium: in vitro; concentration: not given; reference: not given; direction: higher = stronger binding
Target: Histone acetyltransferase KAT6A, winged helix 2, GST fusion (KAT6A, Homo sapiens, UniProt Q92794, residues 85-181)
Setting: 8-mer, flanks averaged, mean of 2 arrays, mostly near background
Target sequence (chain): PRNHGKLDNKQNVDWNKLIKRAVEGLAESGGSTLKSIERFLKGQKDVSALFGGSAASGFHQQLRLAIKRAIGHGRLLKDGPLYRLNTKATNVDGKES
| Sequence | E-score |
| --- | --- |
| CAATCTTC | 0.153 |
| ACTGTGTC | -0.0656 |
| AAATAGCG | -0.14 |
| GAAACCTC | -0.115 |
| ACACGTGT | -0.255 |
| GTAAGGCA | -0.22 |
| CCCCACGG | 0.131 |
| GCGCGTTA | 0.151 |
| CAGTCATC | -0.21 |
| CACTACTA | -0.0147 |
| AAAAGCAT | 0.0515 |
| CATCAACC | -0.0469 |
| GGAACTAA | -0.00346 |
| AAGAACAC | 0.134 |
| AACGCTAC | -0.194 |
| TGACGGCA | 0.143 |
| CATCCTCA | -0.119 |
| CCTGCCGC | 0.13 |
| AGGTTTAC | -0.113 |
| CGGACTGA | -0.0514 |
| CAAGGCCA | -0.00784 |
| ATGGTCTA | -0.216 |
| CATGAGTA | -0.0646 |
| TCTCGAGA | -0.0591 |
| GTATTGTA | -0.14 |

Study 5 — method: universal PBM; molecule type: double-stranded DNA, one strand shown; medium: in vitro; concentration: not given; direction: higher = stronger binding
Target: Sal-like protein 4, full length isoform B (SALL4, Homo sapiens, UniProt Q9UJQ4-2, residues 1-616)
Setting: 8-mer, flanks averaged, mean of replicates
| Sequence | E-score |
| --- | --- |
| ATAGTAAG | 0.184 |
| ATTTGTCG | 0.14 |
| ATTCTTAA | 0.152 |
| CTAAACAA | 0.106 |
| CTAGCGAG | -0.263 |
| CTATGGAA | 0.188 |
| AAGGTAAA | 0.269 |
| AATATAGT | 0.395 |
| ACGAGAAC | 0.0228 |
| ACGTCGTA | 0.0308 |
| GAAGGATC | -0.144 |
| CGTCAACG | -0.181 |
| AACCGCAT | 0.108 |
| CTATCTGA | -0.0289 |
| AGCACAGC | -0.14 |
| TCCACCGA | -0.19 |
| CTACCCAA | 0.058 |
| AGGGGGAA | -0.0422 |
| GAGTGTGC | 0.0862 |
| GTTGTCTA | 0.178 |
| CCCGAGCC | -0.286 |
| CCTGTTAA | 0.0637 |
| ATATGCCA | 0.12 |
| GCTGACAC | -0.126 |
| CGTTTCAG | -0.0002 |

Study 6 — method: aptamer microarray, sandwich; molecule type: DNA with 2'F-ANA; medium: in vitro; concentration: 200 nM; together with: Cy3 exosite-II aptamer, 400 nM; direction: higher = stronger binding; sequence: GGTTGGTGTGGTTGG
Target: Prothrombin, mature alpha-thrombin (F2, Homo sapiens, UniProt P00734)
Setting: whole 15-mer aptamer, many near background
| Modification | mean fluorescence intensity [a.u.] |
| --- | --- |
| 2'F-ANA at 2 5 7 8 9 11 12 13 14 | 50.9 |
| 2'F-ANA at 3 4 6 8 10 12 14 | 178 |
| 2'F-ANA at 5 6 7 8 10 12 13 | 53.5 |
| 2'F-ANA at 1 2 4 5 9 11 13 14 | 44.3 |
| 2'F-ANA at 1 3 4 7 8 10 12 13 15 | 72.7 |
| 2'F-ANA at 2 6 7 8 11 12 14 15 | 189 |
| 2'F-ANA at 1 2 4 5 6 8 9 14 15 | 51.9 |
| 2'F-ANA at 2 6 8 10 11 13 14 | 87.7 |
| 2'F-ANA at 1 4 7 9 10 12 | 56.6 |
| 2'F-ANA at 6 12 13 15 | 621 |
| 2'F-ANA at 1 4 5 7 9 10 13 14 15 | 48.8 |
| 2'F-ANA at 1 2 4 5 9 10 11 13 15 | 49.2 |
| 2'F-ANA at 1 2 5 9 14 | 43.9 |
| 2'F-ANA at 4 5 7 9 13 | 50.8 |
| 2'F-ANA at 1 2 4 7 8 10 11 13 14 | 56.7 |
| 2'F-ANA at 1 2 3 6 7 8 11 14 15 | 72.5 |
| 2'F-ANA at 3 4 5 6 8 12 13 14 | 89.1 |
| 2'F-ANA at 1 3 4 9 12 13 14 15 | 68.9 |

Some of these lines once more (study 4):
| Sequence | E-score |
| --- | --- |
| ACTGTGTC | -0.0656 |
| AAATAGCG | -0.14 |
| GAAACCTC | -0.115 |
| ACACGTGT | -0.255 |
| GTAAGGCA | -0.22 |
| CCCCACGG | 0.131 |
| GCGCGTTA | 0.151 |
| CAGTCATC | -0.21 |
| CACTACTA | -0.0147 |
| AAAAGCAT | 0.0515 |
| CATCAACC | -0.0469 |
| GGAACTAA | -0.00346 |
| AAGAACAC | 0.134 |
| AACGCTAC | -0.194 |
| TGACGGCA | 0.143 |
| CATCCTCA | -0.119 |
| CCTGCCGC | 0.13 |
| AGGTTTAC | -0.113 |
